Measured values pooled from the literature.
Compare with care: the assays were run in different laboratories. ± marks the error that the study gave.
DUSP3: Dual specificity protein phosphatase 3 (DUSP3, Homo sapiens, UniProt P51452)
NR3C1: Glucocorticoid receptor (NR3C1, Homo sapiens, UniProt P04150)

Sequences of proteins named here, by UniProt entry; tags and fusion partners are left off. Residues count along the entry.
UniProt P51452, whole entry: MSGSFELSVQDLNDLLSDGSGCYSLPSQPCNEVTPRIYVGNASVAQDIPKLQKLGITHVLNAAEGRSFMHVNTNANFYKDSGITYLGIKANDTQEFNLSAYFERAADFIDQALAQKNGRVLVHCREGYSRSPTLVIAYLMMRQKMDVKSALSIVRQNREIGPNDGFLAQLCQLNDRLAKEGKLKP
UniProt P04150, whole entry: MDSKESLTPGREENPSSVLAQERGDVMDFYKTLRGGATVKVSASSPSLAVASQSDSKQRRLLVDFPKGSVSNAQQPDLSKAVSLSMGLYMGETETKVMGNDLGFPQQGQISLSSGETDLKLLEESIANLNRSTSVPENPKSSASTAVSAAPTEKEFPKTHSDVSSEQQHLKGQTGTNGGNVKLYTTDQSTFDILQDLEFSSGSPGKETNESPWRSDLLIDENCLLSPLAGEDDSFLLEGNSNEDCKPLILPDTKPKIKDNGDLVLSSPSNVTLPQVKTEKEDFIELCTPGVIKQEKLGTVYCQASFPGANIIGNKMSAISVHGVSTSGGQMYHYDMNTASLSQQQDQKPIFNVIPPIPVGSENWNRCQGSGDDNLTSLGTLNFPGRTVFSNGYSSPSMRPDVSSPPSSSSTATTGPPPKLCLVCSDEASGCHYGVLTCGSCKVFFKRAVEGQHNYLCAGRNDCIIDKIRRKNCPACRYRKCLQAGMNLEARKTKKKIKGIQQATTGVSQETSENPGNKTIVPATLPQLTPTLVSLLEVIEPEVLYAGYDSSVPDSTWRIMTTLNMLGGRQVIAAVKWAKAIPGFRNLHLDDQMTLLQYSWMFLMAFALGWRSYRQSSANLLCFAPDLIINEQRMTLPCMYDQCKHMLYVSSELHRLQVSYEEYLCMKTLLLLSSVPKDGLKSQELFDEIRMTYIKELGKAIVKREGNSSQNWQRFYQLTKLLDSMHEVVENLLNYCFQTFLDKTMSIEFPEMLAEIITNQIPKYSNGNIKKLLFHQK
UniProt P00533, 25-1210 T790M/L858R limits assumed: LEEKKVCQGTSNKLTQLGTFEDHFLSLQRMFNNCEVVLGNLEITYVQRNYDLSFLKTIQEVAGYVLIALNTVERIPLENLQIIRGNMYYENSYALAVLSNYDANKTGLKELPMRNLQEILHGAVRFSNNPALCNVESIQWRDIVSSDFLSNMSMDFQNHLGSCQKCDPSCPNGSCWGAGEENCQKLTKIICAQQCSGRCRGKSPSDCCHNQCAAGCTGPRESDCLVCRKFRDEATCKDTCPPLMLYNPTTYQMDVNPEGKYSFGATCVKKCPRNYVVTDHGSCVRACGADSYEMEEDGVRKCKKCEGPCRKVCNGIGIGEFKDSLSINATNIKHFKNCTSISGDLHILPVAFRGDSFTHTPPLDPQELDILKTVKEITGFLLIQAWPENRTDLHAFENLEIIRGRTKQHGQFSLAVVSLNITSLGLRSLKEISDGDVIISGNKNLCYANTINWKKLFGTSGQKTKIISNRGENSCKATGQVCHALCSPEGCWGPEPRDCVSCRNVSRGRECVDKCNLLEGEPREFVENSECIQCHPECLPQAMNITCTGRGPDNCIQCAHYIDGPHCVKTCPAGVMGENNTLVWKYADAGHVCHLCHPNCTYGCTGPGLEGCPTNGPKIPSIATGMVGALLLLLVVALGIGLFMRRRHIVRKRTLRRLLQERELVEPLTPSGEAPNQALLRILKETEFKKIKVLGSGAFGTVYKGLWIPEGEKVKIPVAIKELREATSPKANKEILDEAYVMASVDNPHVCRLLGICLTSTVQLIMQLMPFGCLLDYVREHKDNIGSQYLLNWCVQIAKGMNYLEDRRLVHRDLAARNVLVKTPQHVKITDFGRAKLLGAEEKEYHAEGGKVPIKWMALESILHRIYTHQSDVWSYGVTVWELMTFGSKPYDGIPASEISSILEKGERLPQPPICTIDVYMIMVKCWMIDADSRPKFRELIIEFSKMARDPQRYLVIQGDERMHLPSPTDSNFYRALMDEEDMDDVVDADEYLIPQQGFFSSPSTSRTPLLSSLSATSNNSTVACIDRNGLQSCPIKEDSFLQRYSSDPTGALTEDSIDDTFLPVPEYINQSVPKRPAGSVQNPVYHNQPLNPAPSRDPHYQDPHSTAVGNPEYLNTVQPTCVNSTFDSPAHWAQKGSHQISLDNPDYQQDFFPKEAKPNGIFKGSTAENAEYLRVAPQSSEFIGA
UniProt P41743, whole entry: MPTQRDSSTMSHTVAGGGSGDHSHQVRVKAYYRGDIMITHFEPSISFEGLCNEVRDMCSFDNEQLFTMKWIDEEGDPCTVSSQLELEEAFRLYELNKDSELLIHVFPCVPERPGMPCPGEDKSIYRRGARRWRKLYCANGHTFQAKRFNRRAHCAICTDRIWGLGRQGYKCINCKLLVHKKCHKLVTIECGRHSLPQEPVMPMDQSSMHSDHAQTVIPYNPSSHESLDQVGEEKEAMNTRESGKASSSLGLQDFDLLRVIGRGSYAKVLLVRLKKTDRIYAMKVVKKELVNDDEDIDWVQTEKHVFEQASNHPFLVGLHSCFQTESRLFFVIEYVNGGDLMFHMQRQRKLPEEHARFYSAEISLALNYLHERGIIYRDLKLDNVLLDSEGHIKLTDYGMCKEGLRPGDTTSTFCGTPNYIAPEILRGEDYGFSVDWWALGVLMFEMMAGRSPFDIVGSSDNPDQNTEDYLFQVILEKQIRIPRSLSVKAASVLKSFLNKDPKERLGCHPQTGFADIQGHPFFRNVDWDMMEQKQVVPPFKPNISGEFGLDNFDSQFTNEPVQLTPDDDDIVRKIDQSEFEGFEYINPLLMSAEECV
UniProt Q9QWY8, 325-451 limits assumed: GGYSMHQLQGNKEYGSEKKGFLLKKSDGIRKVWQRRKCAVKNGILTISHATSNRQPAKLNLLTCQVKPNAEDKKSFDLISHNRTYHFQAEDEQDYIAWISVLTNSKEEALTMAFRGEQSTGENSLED
UniProt P23204, whole entry: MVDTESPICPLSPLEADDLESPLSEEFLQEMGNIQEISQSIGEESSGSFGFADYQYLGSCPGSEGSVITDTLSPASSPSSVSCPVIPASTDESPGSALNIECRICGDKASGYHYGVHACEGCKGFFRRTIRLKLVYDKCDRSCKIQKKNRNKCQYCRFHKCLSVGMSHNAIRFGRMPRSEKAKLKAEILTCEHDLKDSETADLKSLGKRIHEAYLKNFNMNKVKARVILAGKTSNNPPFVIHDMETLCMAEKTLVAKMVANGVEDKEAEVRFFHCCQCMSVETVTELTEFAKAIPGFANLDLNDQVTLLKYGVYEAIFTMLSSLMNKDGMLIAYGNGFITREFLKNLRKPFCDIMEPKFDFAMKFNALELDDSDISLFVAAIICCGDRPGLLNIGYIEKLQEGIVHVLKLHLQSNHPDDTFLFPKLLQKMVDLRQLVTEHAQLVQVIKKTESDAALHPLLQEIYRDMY
UniProt P35236, whole entry: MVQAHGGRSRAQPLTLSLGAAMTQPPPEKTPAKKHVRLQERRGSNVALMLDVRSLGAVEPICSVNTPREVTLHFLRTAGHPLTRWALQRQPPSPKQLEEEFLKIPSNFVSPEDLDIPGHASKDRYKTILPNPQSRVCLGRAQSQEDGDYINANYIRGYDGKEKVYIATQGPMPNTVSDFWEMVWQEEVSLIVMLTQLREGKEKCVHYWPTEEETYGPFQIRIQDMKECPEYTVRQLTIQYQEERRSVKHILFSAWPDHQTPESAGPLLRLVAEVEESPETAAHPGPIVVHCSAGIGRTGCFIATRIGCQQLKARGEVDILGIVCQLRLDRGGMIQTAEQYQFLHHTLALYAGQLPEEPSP
UniProt P10636, whole entry, looked up: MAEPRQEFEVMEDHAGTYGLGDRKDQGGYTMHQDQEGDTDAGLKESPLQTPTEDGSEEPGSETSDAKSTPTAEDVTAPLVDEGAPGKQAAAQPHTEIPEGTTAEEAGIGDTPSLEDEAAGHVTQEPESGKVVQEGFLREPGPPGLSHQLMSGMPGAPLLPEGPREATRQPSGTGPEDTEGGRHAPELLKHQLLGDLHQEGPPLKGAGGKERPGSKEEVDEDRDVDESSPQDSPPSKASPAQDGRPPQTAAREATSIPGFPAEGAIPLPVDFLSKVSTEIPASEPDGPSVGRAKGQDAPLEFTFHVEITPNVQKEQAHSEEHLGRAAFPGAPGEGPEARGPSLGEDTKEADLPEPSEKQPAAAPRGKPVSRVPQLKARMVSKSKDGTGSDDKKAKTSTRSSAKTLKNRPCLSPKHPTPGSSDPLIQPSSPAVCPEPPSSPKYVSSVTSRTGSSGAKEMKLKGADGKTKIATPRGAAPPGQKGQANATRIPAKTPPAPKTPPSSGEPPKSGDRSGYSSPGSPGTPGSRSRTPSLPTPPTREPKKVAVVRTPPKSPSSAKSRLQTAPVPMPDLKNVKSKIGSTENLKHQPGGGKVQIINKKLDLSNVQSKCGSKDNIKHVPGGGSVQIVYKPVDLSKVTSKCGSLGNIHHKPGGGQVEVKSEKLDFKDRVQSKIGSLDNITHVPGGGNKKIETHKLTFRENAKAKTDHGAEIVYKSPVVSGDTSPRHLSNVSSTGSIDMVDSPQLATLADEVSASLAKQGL
UniProt Q15059, whole entry, looked up: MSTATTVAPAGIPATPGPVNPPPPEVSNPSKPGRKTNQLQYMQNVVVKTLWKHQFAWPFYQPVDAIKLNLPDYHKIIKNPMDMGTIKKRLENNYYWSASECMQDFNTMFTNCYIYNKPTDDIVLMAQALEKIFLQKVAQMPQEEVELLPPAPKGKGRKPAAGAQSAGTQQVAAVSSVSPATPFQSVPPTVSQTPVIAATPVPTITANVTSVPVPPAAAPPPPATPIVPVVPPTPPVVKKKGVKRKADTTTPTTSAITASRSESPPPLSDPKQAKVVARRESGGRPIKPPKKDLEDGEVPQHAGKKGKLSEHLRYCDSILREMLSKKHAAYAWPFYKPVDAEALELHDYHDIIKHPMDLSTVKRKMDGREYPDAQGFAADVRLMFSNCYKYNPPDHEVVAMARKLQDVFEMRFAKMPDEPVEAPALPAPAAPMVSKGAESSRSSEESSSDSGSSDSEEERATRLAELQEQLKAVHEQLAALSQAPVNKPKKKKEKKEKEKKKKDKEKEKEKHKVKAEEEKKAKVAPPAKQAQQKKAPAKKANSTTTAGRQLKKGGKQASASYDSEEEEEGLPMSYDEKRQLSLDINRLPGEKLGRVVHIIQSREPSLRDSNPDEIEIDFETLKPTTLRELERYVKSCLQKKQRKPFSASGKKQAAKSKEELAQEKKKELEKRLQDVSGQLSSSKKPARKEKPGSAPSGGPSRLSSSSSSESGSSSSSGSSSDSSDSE
UniProt Q16539, whole entry: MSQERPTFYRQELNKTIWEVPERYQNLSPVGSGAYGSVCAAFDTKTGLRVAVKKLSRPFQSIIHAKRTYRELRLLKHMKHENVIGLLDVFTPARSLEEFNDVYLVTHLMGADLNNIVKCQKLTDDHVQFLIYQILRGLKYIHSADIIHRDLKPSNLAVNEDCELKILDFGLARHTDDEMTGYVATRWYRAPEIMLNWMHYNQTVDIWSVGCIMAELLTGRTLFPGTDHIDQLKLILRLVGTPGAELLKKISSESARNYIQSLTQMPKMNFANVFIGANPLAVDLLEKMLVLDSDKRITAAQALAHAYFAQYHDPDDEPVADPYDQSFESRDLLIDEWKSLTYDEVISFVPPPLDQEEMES
UniProt P17706, whole entry: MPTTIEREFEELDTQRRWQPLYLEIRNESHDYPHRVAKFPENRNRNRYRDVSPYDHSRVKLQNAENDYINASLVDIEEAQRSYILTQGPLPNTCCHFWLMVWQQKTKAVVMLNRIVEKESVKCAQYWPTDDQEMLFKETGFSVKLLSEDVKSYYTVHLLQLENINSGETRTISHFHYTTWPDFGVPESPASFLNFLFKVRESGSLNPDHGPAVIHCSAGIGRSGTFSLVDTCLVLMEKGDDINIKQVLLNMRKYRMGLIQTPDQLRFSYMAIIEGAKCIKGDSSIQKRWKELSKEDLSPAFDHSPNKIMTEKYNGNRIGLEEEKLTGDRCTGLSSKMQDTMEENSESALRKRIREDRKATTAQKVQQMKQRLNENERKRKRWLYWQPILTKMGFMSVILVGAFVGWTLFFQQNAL
UniProt Q9NYA1, 1-470 isoform 2: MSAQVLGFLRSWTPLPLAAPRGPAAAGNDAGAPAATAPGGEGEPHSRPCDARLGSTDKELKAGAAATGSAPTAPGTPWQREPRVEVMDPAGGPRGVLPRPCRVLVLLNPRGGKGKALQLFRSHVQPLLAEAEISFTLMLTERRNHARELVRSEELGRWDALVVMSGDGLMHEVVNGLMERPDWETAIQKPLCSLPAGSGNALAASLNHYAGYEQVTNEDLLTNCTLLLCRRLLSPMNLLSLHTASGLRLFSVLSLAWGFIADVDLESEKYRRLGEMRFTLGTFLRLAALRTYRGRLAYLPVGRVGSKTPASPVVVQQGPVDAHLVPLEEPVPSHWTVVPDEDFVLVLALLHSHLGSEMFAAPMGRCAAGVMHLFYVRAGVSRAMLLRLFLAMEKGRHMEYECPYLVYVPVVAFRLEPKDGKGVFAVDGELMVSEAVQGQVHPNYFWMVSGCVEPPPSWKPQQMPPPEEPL

| Structure (SMILES) | tested on | assay | test system | setting | how to read | measurement | result |
| --- | --- | --- | --- | --- | --- | --- | --- |
| O=C1CCC(N2C(=O)c3cccc(NCCOCCOCCOCCN4CCN(c5ccc(-c6ccc7c(c6)C(=O)N(C(C(=O)Nc6nccs6)c6ccccc6)C7)cn5)CC4)c3C2=O)C(=O)N1 (stereo not shown) | Epidermal growth factor receptor (EGFR, Homo sapiens, UniProt P00533, L858R/T790M) | degrader, Western blot | Ba/F3 EGFR L858R/T790M | 0.1 µM, 24 h | reference: DMSO | remaining protein level | 44% |
| Cc1cc(C)c2nc3s/c(=C\c4ccc(-c5ccccc5C(=O)O)o4)c(=O)n3c2c1 | DUSP3 | phosphatase activity, inhibitor | – | with: OMFP | – | IC50 | 5.8 µM |
| COC(=O)CC[C@@H](C)C1CC[C@H]2[C@H]3CC[C@H]4C[C@@H]5CC[C@@]4(C)[C@@]3(O5)[C@@H](Br)[C@@H](Br)[C@@]12C (stereo partly shown) | NR3C1 | nuclear translocation, agonist, enzyme fragment complementation | – | – | – | EC50 | > 9 µM |
| O=C1C=C(NCCc2cc(Br)c(O)c(Br)c2)C(=O)c2ncccc21 | Protein kinase C iota type (PRKCI, Homo sapiens, UniProt P41743) | SPR | – | – | – | Kd | 58.1 µM |
| C[C@@]12C[C@H](O)C3[C@H](CCC4=CC(=O)CC[C@]43C)[C@H]1CC[C@@H]2c1csc(N)n1 (stereo partly shown) | NR3C1 | nuclear translocation, agonist, enzyme fragment complementation | – | – | – | EC50 | > 9 µM |
| O=C(Nc1cccnn1)N1CC(Oc2ccc(-c3ccccc3F)cn2)C1 | – | item: plasma endocannabinoids | human, plasma | oral, single dose | – | time lag between PK and PD maxima | ~2 h |
| O=c1/c(=C/c2ccc(-c3cc(Cl)cc(Cl)c3)o2)sc2nc3cc(Br)cnc3n12 | DUSP3 | phosphatase activity, inhibitor | – | with: OMFP | – | IC50 | 8.8 µM |
| CC(=O)O[C@H]1CC[C@@]2(C)C(=CC[C@@H]3[C@H]4CC[C@@H]([C@H](C)C(=O)O)[C@]4(C)CC[C@H]32)C1 | NR3C1 | nuclear translocation, agonist, enzyme fragment complementation | – | – | – | EC50 | > 9 µM |
| CCCCCCCC(=O)OCC(COP(=O)(O)OC1C(O)C(O)C(OP(=O)(O)O)C(OP(=O)(O)O)C1O)OC(=O)CCCCCCC (stereo not shown) | Arf-GAP with SH3 domain, ANK repeat and PH domain-containing protein 1 (Asap1, Mus musculus, UniProt Q9QWY8) | protein binding to vesicles, vesicle sedimentation | large unilamellar vesicles | isolated PH domain, with: 75 µM phosphatidylserine | – | Kd | 7 ± 1 µM |
| O=c1c(O[C@@H]2O[C@H](CO)[C@@H](O)[C@H](O)[C@H]2O)c(-c2cc(O)c(O[C@@H]3O[C@H](CO)[C@@H](O)[C@H](O)[C@H]3O)c(O)c2)oc2cc(O)cc(O)c12 | Estrogen receptor beta (ESR2, Homo sapiens, UniProt Q92731) | DNA binding array formation, agonist | PRL-HeLa expressing GFP-ESR2 | 1 h | – | EC50 | 2.01 µM |
| Cc1c(O)cc2c(c1C)O[C@](C)(CCCC(C)C)CC2 | – | bioluminescence | athymic nude mouse, PC-3-luc xenograft | intraperitoneal, 50 mg/kg daily, 21 days | reference: vehicle | tumour growth | inhibited |
| Fc1cccc(-n2cnc3c(NCc4nc5cc(Cl)ccc5[nH]4)nc(N4CCNCC4)nc32)c1 | Casein kinase I isoform delta (CSNK1D, Homo sapiens, UniProt P48730) | KINOMEscan competition binding | – | 10 µM | reference: control | remaining binding | 1.6% |
| O=C(O)C(F)(F)F | Peroxisome proliferator-activated receptor alpha (Ppara, Mus musculus, UniProt P23204) | coactivator recruitment, agonist, biolayer interferometry, item: PGC-1alpha peptide | – | pH 7.4, 25 °C, 0.1% fatty acid-free BSA, sodium salt | – | EC50 | 4900 µM |
| O=c1/c(=C/c2ccc(-c3ccccc3[N+](=O)[O-])o2)sc2nc3cc(Br)cnc3n12 | Tyrosine-protein phosphatase non-receptor type 7 (PTPN7, Homo sapiens, UniProt P35236) | phosphatase activity, inhibitor | – | with: OMFP | – | IC50 | 4.9 µM |
| Fc1cc(-c2ccc3c(n2)[nH]c2ccncc23)ccn1 [isotope labelled] | Microtubule-associated protein tau, paired helical filaments (MAPT, Homo sapiens, UniProt P10636) | radioligand binding | PHF tau brain homogenate | 72.89 nM | higher = more binding | specific binding | 20.1 a.u. |
| CC[C@@H]1C(=O)N(C)c2cnc(Nc3ccc(C(=O)NC4CCN(C)CC4)cc3OC)nc2N1C1CCCC1 | Bromodomain-containing protein 3, BD1 (BRD3, Homo sapiens, UniProt Q15059) | – | – | 10 µM | – | delta Tm | 4.88 ± 0.25 °C |
| CCN1CCN(Cc2ccc(NC(=O)c3ccc(C)c(Oc4ncnc5cc(OC)c(OC)cc45)c3)cc2C(F)(F)F)CC1 | Mitogen-activated protein kinase 14 (MAPK14, Homo sapiens, UniProt Q16539) | enzyme activity, Z'-LYTE | – | with: ATP at Km | – | IC50 | 0.126 µM |
| COc1cc(CC(=O)NCC(NC(=O)C(CCCNC(=O)c2cccc(I)c2)NC(=O)C(Cc2ccc(C(F)(F)P(=O)(O)O)cc2)NC(=O)c2ccc(C)c(Br)c2)C(N)=O)ccc1O (stereo not shown) | Tyrosine-protein phosphatase non-receptor type 2 (PTPN2, Homo sapiens, UniProt P17706) | enzyme activity, inhibitor | – | – | – | Ki | 0.6 µM |
| C[C@H](CCC(=O)O)[C@H]1CC[C@@H]2[C@H]3CC[C@H]4C[C@H](O)CC[C@@]4(C)[C@@H]3CC[C@@]21C | NR3C1 | nuclear translocation, agonist, enzyme fragment complementation | – | – | – | EC50 | > 9 µM |
| O=c1/c(=C/c2ccccc2Cl)sc2nc3cc(Br)cnc3n12 | DUSP3 | phosphatase activity, inhibitor | – | with: OMFP | – | IC50 | > 100 µM |
| O=C1C(=Cc2ccc(O)c(O)c2)Oc2ccccc21 | Sphingosine kinase 1 (SPHK1, Homo sapiens, UniProt Q9NYA1) | inhibitor, TLC | – | – | – | Ki | 8 µM |
| CC(=O)O[C@H]1CC[C@]2(C)C(=CC[C@H]3[C@H]4C[C@H]5O[C@]6(CC[C@H](C)CN6)[C@H](C)[C@@H]5[C@]4(C)CC[C@@H]32)C1 | NR3C1 | nuclear translocation, agonist, enzyme fragment complementation | – | – | – | EC50 | > 9 µM |

Excerpt of the above:
| Structure (SMILES) | tested on | assay | test system | setting | how to read | measurement | result |
| --- | --- | --- | --- | --- | --- | --- | --- |
| CCN1CCN(Cc2ccc(NC(=O)c3ccc(C)c(Oc4ncnc5cc(OC)c(OC)cc45)c3)cc2C(F)(F)F)CC1 | Mitogen-activated protein kinase 14 (MAPK14, Homo sapiens, UniProt Q16539) | enzyme activity, Z'-LYTE | – | with: ATP at Km | – | IC50 | 0.126 µM |
| O=C1C=C(NCCc2cc(Br)c(O)c(Br)c2)C(=O)c2ncccc21 | Protein kinase C iota type (PRKCI, Homo sapiens, UniProt P41743) | SPR | – | – | – | Kd | 58.1 µM |
